Measurements gathered from unrelated publications.
Every numbered part comes from another study and shows a few of its results, in no order. Several values in a cell are separate wells, animals, samples, runs or records.
Sequence of UniProt Q9Y243 (whole entry, looked up): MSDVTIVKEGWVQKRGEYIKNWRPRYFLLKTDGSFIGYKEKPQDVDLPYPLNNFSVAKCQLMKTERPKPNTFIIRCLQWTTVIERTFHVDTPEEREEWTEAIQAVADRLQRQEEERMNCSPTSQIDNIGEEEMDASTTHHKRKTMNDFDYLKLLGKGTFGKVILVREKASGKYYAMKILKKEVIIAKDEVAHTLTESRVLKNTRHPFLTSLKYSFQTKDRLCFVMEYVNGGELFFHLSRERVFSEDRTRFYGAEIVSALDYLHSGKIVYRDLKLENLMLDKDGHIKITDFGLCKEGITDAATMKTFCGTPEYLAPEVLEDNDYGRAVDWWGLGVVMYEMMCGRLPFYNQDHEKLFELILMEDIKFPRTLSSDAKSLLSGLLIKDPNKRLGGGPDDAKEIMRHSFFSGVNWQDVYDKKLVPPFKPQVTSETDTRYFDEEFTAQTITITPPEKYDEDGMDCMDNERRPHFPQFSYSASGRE
Sequence of UniProt Q9NWZ3 (whole entry, looked up): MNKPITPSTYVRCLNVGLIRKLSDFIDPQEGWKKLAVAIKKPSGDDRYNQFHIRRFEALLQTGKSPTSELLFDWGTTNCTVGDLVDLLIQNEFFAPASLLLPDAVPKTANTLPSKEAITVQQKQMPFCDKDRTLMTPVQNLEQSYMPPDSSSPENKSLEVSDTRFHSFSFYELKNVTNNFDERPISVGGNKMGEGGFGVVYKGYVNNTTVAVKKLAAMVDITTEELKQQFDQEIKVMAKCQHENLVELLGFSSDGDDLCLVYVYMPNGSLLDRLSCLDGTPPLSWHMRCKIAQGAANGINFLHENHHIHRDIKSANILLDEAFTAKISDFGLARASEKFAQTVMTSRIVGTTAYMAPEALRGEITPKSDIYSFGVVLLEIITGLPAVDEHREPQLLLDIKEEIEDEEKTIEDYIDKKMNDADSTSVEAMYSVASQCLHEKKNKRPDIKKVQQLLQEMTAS
Sequence of UniProt O75582 (whole entry, looked up): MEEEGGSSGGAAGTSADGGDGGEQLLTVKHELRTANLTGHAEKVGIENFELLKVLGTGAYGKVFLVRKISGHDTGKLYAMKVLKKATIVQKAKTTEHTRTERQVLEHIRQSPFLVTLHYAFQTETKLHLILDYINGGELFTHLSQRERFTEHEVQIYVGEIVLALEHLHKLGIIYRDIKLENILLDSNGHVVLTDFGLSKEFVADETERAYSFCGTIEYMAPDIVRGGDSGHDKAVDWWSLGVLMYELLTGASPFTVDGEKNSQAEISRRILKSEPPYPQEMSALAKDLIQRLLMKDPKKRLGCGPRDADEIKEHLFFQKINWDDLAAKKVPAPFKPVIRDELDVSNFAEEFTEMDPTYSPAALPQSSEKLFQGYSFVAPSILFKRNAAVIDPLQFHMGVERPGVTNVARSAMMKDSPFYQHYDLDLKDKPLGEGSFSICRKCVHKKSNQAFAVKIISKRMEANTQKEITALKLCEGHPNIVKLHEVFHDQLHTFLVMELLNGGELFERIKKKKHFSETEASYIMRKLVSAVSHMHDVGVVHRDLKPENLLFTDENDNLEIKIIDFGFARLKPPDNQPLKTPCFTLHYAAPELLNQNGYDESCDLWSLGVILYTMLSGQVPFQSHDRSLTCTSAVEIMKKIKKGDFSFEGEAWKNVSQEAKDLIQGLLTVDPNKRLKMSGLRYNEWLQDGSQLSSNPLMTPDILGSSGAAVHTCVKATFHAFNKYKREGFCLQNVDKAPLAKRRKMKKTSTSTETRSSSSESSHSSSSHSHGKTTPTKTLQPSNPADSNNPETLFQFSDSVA
Sequence of UniProt Q05655 (whole entry, looked up): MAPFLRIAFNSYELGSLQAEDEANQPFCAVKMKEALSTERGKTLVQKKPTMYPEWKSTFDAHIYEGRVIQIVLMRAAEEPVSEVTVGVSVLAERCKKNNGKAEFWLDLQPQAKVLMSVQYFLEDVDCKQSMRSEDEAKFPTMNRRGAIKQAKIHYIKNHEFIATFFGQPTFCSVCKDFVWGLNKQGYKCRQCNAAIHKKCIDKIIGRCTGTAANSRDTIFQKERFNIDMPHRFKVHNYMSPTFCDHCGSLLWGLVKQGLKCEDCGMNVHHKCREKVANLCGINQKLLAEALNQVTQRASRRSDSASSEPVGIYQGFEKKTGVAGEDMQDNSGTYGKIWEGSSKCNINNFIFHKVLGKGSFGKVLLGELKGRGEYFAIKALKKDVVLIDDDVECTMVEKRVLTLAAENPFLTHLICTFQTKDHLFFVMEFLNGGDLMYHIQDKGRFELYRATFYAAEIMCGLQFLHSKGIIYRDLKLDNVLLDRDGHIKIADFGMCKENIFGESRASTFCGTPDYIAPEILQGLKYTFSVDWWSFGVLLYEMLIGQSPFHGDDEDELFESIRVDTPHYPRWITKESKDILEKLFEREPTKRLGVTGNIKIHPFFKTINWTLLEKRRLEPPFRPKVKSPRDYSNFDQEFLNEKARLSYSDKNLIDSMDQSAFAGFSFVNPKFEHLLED
Sequence of UniProt Q5S007 (whole entry, looked up): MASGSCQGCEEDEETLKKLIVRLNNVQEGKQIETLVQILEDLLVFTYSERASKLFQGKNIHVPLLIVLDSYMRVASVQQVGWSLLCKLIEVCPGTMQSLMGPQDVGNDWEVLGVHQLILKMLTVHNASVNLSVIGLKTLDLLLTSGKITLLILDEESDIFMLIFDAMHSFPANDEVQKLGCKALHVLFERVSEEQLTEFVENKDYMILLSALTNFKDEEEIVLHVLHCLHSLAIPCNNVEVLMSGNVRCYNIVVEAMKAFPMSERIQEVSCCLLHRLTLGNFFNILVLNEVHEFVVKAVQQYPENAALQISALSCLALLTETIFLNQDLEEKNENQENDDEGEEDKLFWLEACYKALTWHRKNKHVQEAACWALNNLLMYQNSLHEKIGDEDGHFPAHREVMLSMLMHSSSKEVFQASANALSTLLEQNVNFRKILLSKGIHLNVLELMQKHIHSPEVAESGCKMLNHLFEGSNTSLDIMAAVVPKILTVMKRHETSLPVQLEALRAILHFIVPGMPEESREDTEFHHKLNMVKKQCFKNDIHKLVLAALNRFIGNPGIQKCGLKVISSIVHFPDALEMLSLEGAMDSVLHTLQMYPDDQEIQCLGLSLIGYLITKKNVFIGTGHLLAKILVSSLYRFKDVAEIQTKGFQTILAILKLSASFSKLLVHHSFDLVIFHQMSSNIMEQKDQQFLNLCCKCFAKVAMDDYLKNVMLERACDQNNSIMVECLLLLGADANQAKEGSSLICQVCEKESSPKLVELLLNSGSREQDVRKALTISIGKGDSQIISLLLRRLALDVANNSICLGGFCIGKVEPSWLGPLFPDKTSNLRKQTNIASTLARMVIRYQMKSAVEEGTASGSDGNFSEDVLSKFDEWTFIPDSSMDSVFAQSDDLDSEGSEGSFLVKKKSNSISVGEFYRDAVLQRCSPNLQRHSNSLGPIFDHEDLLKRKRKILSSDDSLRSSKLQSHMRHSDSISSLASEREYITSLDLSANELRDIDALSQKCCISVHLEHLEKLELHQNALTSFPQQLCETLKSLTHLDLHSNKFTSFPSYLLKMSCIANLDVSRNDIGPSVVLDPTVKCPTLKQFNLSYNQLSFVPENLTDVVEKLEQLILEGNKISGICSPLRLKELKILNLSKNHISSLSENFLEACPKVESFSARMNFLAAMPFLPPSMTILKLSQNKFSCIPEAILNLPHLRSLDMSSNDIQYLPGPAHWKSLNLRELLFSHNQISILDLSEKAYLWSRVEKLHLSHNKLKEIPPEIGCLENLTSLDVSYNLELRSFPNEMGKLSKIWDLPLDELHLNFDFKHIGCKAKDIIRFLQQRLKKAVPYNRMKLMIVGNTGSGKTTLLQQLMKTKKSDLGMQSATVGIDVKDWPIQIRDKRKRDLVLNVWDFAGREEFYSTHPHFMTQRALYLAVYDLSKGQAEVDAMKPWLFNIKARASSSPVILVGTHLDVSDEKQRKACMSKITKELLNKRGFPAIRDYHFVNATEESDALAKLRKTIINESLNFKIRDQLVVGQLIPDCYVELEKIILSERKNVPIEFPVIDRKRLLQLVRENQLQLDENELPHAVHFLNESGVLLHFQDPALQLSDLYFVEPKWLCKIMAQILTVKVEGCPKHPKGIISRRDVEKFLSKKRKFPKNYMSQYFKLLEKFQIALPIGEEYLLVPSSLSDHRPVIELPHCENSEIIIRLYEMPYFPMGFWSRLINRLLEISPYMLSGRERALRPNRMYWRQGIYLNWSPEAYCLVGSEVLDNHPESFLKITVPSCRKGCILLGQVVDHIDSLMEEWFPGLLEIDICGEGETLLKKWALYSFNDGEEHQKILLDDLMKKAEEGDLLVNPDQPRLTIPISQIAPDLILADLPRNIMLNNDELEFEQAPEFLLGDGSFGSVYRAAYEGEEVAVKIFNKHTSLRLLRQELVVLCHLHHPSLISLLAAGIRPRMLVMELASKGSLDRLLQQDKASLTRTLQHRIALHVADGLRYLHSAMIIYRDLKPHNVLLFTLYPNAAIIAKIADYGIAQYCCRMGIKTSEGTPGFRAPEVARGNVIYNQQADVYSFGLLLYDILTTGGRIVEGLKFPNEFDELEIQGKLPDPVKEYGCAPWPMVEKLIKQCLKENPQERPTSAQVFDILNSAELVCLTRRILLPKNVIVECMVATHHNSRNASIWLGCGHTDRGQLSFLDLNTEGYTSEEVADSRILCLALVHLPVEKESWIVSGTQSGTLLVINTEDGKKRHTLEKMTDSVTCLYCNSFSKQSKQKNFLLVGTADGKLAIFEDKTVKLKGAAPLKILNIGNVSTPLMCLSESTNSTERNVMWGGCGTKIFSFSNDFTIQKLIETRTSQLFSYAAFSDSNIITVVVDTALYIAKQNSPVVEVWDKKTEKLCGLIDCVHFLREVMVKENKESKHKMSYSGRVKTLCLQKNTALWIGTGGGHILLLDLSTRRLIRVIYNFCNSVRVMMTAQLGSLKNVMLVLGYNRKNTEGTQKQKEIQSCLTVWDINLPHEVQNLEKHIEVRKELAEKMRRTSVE

Set 1
Compound: CNCc1ccccc1-c1csc([C@@H](C)Nc2nc(C)nc3cc(OC)c(OC)cc23)c1
Effect on: cell-free assay
Technique: competition with immobilised ligand
Tested at: 1 µM
Serine/threonine-protein kinase PLK4 (PLK4, Homo sapiens, UniProt O00444) — remaining binding: 74%.
SNF-related serine/threonine-protein kinase (SNRK, Homo sapiens, UniProt Q9NRH2) — remaining binding: 78%.
For Serine/threonine-protein kinase Chk2 (CHEK2, Homo sapiens, UniProt O96017): remaining binding read 76%.
Mitogen-activated protein kinase kinase kinase 9 (MAP3K9, Homo sapiens, UniProt P80192) — remaining binding: 98%.
For Serine/threonine-protein kinase N2 (PKN2, Homo sapiens, UniProt Q16513): remaining binding read 89%.
It gave 100% for remaining binding (Ribosomal protein S6 kinase alpha-5, N-terminal kinase domain (RPS6KA5, Homo sapiens, UniProt O75582)).
It gave 99% for remaining binding (Cyclin-dependent kinase-like 2 (CDKL2, Homo sapiens, UniProt Q92772)).
For Phosphatidylinositol 4,5-bisphosphate 3-kinase catalytic subunit alpha isoform (PIK3CA, Homo sapiens, UniProt P42336, Q546K): remaining binding read 89%.
It gave 80% for remaining binding (Ribosomal protein S6 kinase alpha-3, N-terminal kinase domain (RPS6KA3, Homo sapiens, UniProt P51812)).
Cyclin-dependent kinase 18 (CDK18, Homo sapiens, UniProt Q07002) — remaining binding: 100%.
It gave 100% for remaining binding (Epidermal growth factor receptor (EGFR, Homo sapiens, UniProt P00533, del746-750)).
For Epidermal growth factor receptor (EGFR, Homo sapiens, UniProt P00533, T790M): remaining binding read 68%.
Ribosomal protein S6 kinase alpha-6, N-terminal kinase domain (RPS6KA6, Homo sapiens, UniProt Q9UK32) — remaining binding: 85%.
For Tyrosine-protein kinase ABL1, phosphorylated (ABL1, Homo sapiens, UniProt P00519, H396P): remaining binding read 93%.
RAC-gamma serine/threonine-protein kinase (AKT3, Homo sapiens, UniProt Q9Y243) — remaining binding: 92%.
For Calcium/calmodulin-dependent protein kinase type II subunit beta (CAMK2B, Homo sapiens, UniProt Q13554): remaining binding read 92%.

Set 2
Compound: Cc1ccc(NC(=O)c2ccc(CN3CCN(C)CC3)cc2)cc1Nc1nccc(-c2cccnc2)n1
Effect on: enzyme activity
Mode: inhibitor
Tested at: 0.5 µM
Relative to: control
For Ephrin type-A receptor 5 (EPHA5, Homo sapiens, UniProt P54756): remaining activity read 104%.
Serine/threonine-protein kinase Nek4 (NEK4, Homo sapiens, UniProt P51957) — remaining activity: 98.2%.
It gave 107% for remaining activity (Casein kinase II subunit alpha (CSNK2A1, Homo sapiens, UniProt P68400)).
For Serine/threonine-protein kinase PLK2 (PLK2, Homo sapiens, UniProt Q9NYY3): remaining activity read 104%.
The remaining activity was 107% (Mitogen-activated protein kinase kinase kinase kinase 2 (MAP4K2, Homo sapiens, UniProt Q12851)).
Protein kinase C iota type (PRKCI, Homo sapiens, UniProt P41743) — remaining activity: 91.2%.
It gave 92.4% for remaining activity (RAC-gamma serine/threonine-protein kinase (AKT3, Homo sapiens, UniProt Q9Y243)).
The remaining activity was 98.3% (Leucine-rich repeat serine/threonine-protein kinase 2 (LRRK2, Homo sapiens, UniProt Q5S007)).
It gave 97.2% for remaining activity (Mitogen-activated protein kinase 13 (MAPK13, Homo sapiens, UniProt O15264)).
Serine/threonine-protein kinase Chk1 (CHEK1, Homo sapiens, UniProt O14757) — remaining activity: 109%.
It gave 102% for remaining activity (Serine/threonine-protein kinase WNK2 (WNK2, Homo sapiens, UniProt Q9Y3S1)).
It gave 105% for remaining activity (Protein kinase C delta type (PRKCD, Homo sapiens, UniProt Q05655)).
Mast/stem cell growth factor receptor Kit (KIT, Homo sapiens, UniProt P10721) — remaining activity: 49.6%.
For Tyrosine-protein kinase BTK (BTK, Homo sapiens, UniProt Q06187): remaining activity read 103%.
MAP kinase-interacting serine/threonine-protein kinase 2 (MKNK2, Homo sapiens, UniProt Q9HBH9) — remaining activity: 106%.
It gave 100% for remaining activity (Serine/threonine-protein kinase 38 (STK38, Homo sapiens, UniProt Q15208)).
For Cyclin-dependent kinase 9, with cyclin T1 (CDK9, Homo sapiens, UniProt P50750): remaining activity read 100%.
Interleukin-1 receptor-associated kinase 4 (IRAK4, Homo sapiens, UniProt Q9NWZ3) — remaining activity: 101%.
For Dual specificity mitogen-activated protein kinase kinase 6 (MAP2K6, Homo sapiens, UniProt P52564): remaining activity read 96.3%.
For cGMP-dependent protein kinase 1 (PRKG1, Homo sapiens, UniProt Q13976): remaining activity read 86%.

Set 3
Cell line: A-375
Tested at: 100 µM
Time: 18 h
With Nc1ccc(S(=O)(=O)Nc2ccc(Cl)nn2)cc1 the viability was 98.2%.
COc1c(N2C[C@@H]3CCCN[C@@H]3C2)c(F)cc2c(=O)c(C(=O)O)cn(C3CC3)c12 has a viability of 65.6%.
Clc1ccc(C(Cn2ccnc2)OCc2c(Cl)cccc2Cl)c(Cl)c1 (stereo not drawn) has a viability of 91.5%.
For CC(C)NCC(O)COc1ccc(CCOCC2CC2)cc1 (stereo not drawn), the viability was 95.6%.
O=C(Nc1ccccc1)c1ccccc1O has a viability of 41.5%.
The viability of Cc1ccc(S(=O)(=O)NC(=O)NN2CCCCCC2)cc1 is reported as 60.5%.
With C[N+](C)(C)CCO the viability was 101%.
With CNC(=O)c1cc(Oc2ccc(NC(=O)Nc3ccc(Cl)c(C(F)(F)F)c3)cc2)ccn1 the viability was 31.5% and 30.9%.
For Cc1cc(C(C)(C)C)c(O)c(C)c1CC1=NCCN1, the viability was 93.8%.
For CCCCOc1cc(C(=O)OCCN(CC)CC)ccc1N, the viability was 104%.
O=C1O[C@H](CO)[C@@H](O)[C@H](O)[C@H]1O has a viability of 75.2%.
Clc1ccc(C(Cn2ccnc2)OCc2ccc(Sc3ccccc3)cc2)c(Cl)c1 (stereo not drawn) gave a viability of 11%.
CC1(C)NC(=O)N(c2ccc([N+](=O)[O-])c(C(F)(F)F)c2)C1=O has a viability of 89.5%.

Set 4
Host: mouse
Medium: microsomes or S9
Tested at: 2 µM
Time: 0.5 h
Cc1cc2c3c(c1)C1(NC(=O)c4ccccc4N1)C(=O)N3C1(CCCCCC1)CC2(C)C (stereo not drawn) has a remaining compound of 16.8%.
CCc1ccc(/N=c2\ncc3c([nH]2)CC(c2ccc(OC)cc2)CC3=O)cc1 (stereo not drawn) gave a remaining compound of 95.1%.
The remaining compound of CCCN(CC1CCCO1)C(=O)c1sc2ncn(C)c(=O)c2c1C (stereo not drawn) is reported as 24.7%.
The remaining compound of Cn1c2nc3ccccc3nc2c2c(=O)n(Cc3ccccc3)cnc21 is reported as 26%.
With CCOc1ccccc1CCCNS(=O)(=O)c1ccc(C)cc1 the remaining compound was 4.76%.
For O=C(Nc1nccs1)C1Cc2ccccc2CN1S(=O)(=O)c1cccs1 (stereo not drawn), the remaining compound was 0.67%.
COc1cccc(NC(=O)Cn2cnc3c(sc4nc5c(cc43)COC(C)(C)C5)c2=O)c1 has a remaining compound of 87.4%.
For CCOc1ccc(S(=O)(=O)/N=C2/CCCCCN2)cc1, the remaining compound was 7.45%.
Cc1sc(Br)nc1-c1ccc(NS(C)(=O)=O)c(Cl)c1 gave a remaining compound of 0.0644%.
With COc1c2c(cc3c1OCO3)CCN(C)C(C(=O)c1ccc(Br)cc1)=C2 the remaining compound was 0%.
CCOc1ccc(-c2nc(C)c(C(C)=O)n2O)cc1 gave a remaining compound of 82.5%.
CN(C)c1ccc(-c2nc3n(c2NC(C)(C)CC(C)(C)C)CCNC3)cc1 has a remaining compound of 9.89%.
With COc1ccccc1CNc1ccc2[nH]c(=O)[nH]c2c1 the remaining compound was 95.3%.
With O=C(CCn1[nH]c(=O)c2ccccc2c1=O)NN(Cc1ccccc1)Cc1ccccc1 the remaining compound was 32.8%.
COC(=O)C1CCCN1C(=O)c1ccc(NC(c2ccc(Cl)cc2)c2ccccc2Cl)c(F)c1 (stereo not drawn) gave a remaining compound of 29.9%.
Cc1ccc(-c2ccc(C(CN3CCCC3)N(C)C(=O)CN3C(=O)COc4cc(Cl)c(Cl)cc43)cc2)cn1 (stereo not drawn) gave a remaining compound of 58.2%.
With c1ccc(-c2oc3ncn4ncnc4c3c2-c2ccccc2)cc1 the remaining compound was 81.8%.
